Earlier results that unrelated publications cite.
Compare with care: the assays were run in different laboratories. ± gives the spread as reported.
Sequence of UniProt O15244 (whole entry, looked up): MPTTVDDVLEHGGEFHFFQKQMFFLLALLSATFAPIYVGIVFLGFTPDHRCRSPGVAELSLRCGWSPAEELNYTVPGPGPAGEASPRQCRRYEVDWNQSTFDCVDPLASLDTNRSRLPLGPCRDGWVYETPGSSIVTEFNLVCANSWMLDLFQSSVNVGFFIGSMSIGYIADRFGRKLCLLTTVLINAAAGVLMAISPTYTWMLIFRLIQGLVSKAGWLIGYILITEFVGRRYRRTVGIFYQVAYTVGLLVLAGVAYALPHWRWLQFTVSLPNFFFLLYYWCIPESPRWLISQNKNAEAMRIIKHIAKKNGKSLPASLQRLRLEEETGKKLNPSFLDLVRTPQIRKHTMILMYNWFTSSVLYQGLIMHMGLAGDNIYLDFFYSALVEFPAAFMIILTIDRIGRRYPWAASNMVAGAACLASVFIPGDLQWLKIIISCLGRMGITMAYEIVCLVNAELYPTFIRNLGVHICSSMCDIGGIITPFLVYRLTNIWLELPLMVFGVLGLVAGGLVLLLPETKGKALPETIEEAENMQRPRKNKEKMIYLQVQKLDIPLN

O=C1NCN(c2ccccc2)C12CCN(CCCC(c1ccc(F)cc1)c1ccc(F)cc1)CC2 — EC50 (MERS-CoV; viral replication, ELISA; Vero E6): 7480 nM
C[C@@H]1CCO[C@H]2Cn3cc(C(=O)NCc4ccc(F)cc4F)c(=O)c(O)c3C(=O)N12 — EC50 (HIV-1; viral replication, single-round vector infection; IN N155H): 3.6 ± 1.3 nM
Cc1nnc(C(=O)NC(C)(C)c2nc(C(=O)NCc3ccc(F)cc3)c(O)c(=O)n2C)o1 — EC50 (HIV-1; viral replication; integrase R263K mutant): 5.7 ± 2.3 nM
CC(CN1c2ccccc2Sc2ccccc21)N(C)C (stereo not drawn) — IC50 (Ebola virus; pseudovirus entry, HIV pseudotype reporter; A549): 19400 nM
O=C(c1cc(=O)[nH]c2ccccc12)N1CCN(c2ccc(Cl)c(Cl)c2)CC1CN1CCOCC1 (stereo not drawn) — IC50 (SARS-CoV-2 3CL protease; enzyme activity, inhibitor): 150 nM
Nc1ncnc2c1ncn2[C@@H]1O[C@H](COP(=O)(O)OP(=O)(O)OP(=O)(O)O)[C@@H](O)[C@H]1O — kcat (Replicase polyprotein 1ab, nsp12 with nsp7/nsp8 (rep, Severe acute respiratory syndrome coronavirus 2, UniProt P0DTD1); substrate; templating base U): 240 ± 30 s⁻¹
CN(C)CCOc1ccc(/C(=C(/CCCl)c2ccccc2)c2ccccc2)cc1 — IC50 (Ebola virus; viral replication, eGFP reporter virus; Vero E6): 162 nM
C[C@@H]1CCO[C@H]2Cn3cc(C(=O)NCc4ccc(F)cc4F)c(=O)c(O)c3C(=O)N12 — EC50 (HIV-1; viral replication; integrase G118R mutant): 13 ± 5 nM
Cn1c(Cn2ccc(C(F)(F)F)c(Oc3cc(Cl)cc(C#N)c3)c2=O)n[nH]c1=O — EC50 (HIV-1; viral replication; MT-4, K103N mutant): 13.9 ± 4.83 nM
CCN(CC)CCOc1ccc(C(O)(Cc2ccc(Cl)cc2)c2ccc(C)cc2)cc1 (stereo not drawn) — IC50 (Ebola virus; viral replication, eGFP reporter virus; Vero E6): 1920 nM
NC(=O)c1nc(F)c[nH]c1=O — survival (Lassa virus; guinea pig; 300 mg/kg): 83%
C[C@H]1CO[C@@H]2Cn3cc(C(=O)NCc4ccc(F)cc4F)c(=O)c(O)c3C(=O)N12 — EC50 (HIV-1; viral replication, single-round vector infection; IN G140S/Q148H): 23.5 ± 7.2 nM
C[C@@H]1C[C@H]2[C@@H]3CCC4=CC(=O)C=C[C@]4(C)[C@@]3(F)[C@@H](O)C[C@]2(C)[C@@]1(O)C(=O)CO — inhibition (SLC22A2 (Homo sapiens, UniProt O15244); 20 µM): no inhibition
C[C@H](NC(=O)[C@@H](c1cccnc1)N(C(=O)c1ccco1)c1ccc(-c2ccccc2)cc1)c1ccccc1 — IC50 (human calpain 1; enzyme activity, inhibitor): 6000 nM
CC(C)(C)[C@H](NC(=O)C(F)(F)F)C(=O)N1C[C@H]2[C@@H]([C@H]1C(=O)N[C@H](C#N)C[C@@H]1CCNC1=O)C2(C)C — EC50 (SARS-CoV-2; viral replication; Vero): 3700 ± 100 nM
O=C(NCc1c(F)cc(F)cc1F)c1cn2c(c(O)c1=O)C(=O)N1[C@H]3CC[C@H](C3)O[C@@H]1C2 — EC50 (HIV-1 integrase S230N; viral replication; HIV-1; single-round vector): 2.6 ± 0.6 nM
Fc1ccc([C@@H]2CCNC[C@H]2COc2ccc3c(c2)OCO3)cc1 — EC50 (Ebola virus; viral replication; Vero E6, eGFP reporter): 27000 nM
tirzepatide — body weight loss (human; dose not given): ≤ 20.9%
